Published values collected from several papers.
Compare with care: the assays were run in different laboratories. Several values in a cell are separate wells, animals, samples, runs or records. ± gives the spread as reported. Bridge positions count the residues as written; N and C are the ends. Ends that are not written are not given here.
PARP16: Protein mono-ADP-ribosyltransferase PARP16 (PARP16, Homo sapiens, UniProt Q8N5Y8)
Chain of UniProt Q8N5Y8 (whole entry, looked up): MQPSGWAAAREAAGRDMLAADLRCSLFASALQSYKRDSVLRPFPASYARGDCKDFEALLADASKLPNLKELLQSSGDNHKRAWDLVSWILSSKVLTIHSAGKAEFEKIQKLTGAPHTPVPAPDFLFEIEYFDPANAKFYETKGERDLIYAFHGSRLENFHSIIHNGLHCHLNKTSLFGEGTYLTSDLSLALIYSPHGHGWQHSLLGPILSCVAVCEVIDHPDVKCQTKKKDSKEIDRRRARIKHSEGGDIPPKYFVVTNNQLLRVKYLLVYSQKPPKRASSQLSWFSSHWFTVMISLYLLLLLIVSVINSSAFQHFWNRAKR
AKR1C3: Aldo-keto reductase family 1 member C3 (AKR1C3, Homo sapiens, UniProt P42330)
Chain of UniProt P42330 (whole entry, looked up): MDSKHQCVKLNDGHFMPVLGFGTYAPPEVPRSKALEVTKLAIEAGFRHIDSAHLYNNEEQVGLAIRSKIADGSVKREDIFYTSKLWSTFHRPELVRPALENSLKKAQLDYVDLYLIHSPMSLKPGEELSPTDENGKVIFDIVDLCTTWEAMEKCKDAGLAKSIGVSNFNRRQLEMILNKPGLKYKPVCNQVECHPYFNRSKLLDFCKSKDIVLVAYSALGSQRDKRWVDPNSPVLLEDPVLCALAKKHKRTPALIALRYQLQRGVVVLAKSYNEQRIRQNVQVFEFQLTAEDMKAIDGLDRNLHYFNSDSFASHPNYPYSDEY
MAL12: Alpha-glucosidase MAL12 (MAL12, Saccharomyces cerevisiae S288c, UniProt P53341)
Chain of UniProt P53341 (whole entry, looked up): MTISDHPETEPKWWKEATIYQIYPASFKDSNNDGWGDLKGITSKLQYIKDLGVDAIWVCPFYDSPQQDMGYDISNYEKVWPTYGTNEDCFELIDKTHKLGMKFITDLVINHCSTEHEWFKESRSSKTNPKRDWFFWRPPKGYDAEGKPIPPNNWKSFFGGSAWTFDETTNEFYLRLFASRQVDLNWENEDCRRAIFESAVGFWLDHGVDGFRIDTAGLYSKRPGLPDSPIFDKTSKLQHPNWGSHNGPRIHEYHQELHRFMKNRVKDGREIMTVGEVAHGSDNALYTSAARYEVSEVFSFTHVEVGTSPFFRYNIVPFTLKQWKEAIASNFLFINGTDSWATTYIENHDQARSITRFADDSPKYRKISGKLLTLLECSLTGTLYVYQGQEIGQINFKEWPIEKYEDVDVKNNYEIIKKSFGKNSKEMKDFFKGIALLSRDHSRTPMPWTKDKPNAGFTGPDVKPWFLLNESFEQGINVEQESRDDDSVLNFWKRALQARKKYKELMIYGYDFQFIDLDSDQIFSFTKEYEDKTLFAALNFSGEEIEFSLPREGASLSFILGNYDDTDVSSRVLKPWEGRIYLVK
SLC22A5: Organic cation/carnitine transporter 2 (SLC22A5, Homo sapiens, UniProt O76082)
Chain of UniProt O76082 (whole entry, looked up): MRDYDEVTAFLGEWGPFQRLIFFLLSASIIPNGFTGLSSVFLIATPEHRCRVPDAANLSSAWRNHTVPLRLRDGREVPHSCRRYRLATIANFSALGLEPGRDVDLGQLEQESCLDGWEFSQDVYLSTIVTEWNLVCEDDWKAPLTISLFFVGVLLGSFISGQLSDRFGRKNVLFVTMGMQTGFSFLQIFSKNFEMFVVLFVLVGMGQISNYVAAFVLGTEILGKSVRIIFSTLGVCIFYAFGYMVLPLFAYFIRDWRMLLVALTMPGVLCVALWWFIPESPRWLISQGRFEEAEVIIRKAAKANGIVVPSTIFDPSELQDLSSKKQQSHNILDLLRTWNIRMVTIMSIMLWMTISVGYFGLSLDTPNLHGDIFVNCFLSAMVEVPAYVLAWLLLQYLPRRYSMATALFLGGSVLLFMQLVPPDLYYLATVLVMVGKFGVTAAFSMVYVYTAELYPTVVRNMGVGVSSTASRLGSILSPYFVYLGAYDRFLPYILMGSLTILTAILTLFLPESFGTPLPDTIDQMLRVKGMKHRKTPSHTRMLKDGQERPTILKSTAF
Chain of UniProt P34972 (whole entry, looked up): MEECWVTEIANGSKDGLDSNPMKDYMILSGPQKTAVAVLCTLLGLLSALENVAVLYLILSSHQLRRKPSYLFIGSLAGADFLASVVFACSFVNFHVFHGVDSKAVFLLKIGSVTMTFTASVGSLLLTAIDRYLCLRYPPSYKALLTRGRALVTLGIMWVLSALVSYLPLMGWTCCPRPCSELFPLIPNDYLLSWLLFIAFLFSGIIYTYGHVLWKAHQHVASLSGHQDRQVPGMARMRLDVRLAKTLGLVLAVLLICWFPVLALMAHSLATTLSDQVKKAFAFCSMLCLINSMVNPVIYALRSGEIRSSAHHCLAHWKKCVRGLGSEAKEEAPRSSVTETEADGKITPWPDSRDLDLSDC
Chain of UniProt Q92831 (whole entry, looked up): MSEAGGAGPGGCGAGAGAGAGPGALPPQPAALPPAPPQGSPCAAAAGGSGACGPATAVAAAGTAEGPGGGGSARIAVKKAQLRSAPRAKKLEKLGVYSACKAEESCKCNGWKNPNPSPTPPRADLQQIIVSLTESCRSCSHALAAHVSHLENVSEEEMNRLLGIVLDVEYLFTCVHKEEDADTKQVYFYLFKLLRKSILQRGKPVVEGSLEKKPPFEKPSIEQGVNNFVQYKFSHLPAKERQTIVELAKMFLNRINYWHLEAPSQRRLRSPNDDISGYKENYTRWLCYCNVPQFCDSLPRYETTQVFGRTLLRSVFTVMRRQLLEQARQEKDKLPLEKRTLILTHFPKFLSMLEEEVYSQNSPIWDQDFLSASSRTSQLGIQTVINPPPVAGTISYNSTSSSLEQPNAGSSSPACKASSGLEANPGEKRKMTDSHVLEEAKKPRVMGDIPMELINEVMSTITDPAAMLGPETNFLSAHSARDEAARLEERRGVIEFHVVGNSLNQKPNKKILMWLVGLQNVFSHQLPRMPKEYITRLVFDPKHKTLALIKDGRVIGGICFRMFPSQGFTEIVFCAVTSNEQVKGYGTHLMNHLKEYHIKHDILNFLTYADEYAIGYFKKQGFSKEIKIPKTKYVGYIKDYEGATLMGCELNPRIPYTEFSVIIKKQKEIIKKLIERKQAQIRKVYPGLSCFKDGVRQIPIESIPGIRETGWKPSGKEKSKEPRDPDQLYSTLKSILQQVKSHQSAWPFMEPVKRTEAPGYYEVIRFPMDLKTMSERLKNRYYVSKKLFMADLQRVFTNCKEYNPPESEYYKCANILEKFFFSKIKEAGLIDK
Chain of UniProt Q8K424 (whole entry, looked up): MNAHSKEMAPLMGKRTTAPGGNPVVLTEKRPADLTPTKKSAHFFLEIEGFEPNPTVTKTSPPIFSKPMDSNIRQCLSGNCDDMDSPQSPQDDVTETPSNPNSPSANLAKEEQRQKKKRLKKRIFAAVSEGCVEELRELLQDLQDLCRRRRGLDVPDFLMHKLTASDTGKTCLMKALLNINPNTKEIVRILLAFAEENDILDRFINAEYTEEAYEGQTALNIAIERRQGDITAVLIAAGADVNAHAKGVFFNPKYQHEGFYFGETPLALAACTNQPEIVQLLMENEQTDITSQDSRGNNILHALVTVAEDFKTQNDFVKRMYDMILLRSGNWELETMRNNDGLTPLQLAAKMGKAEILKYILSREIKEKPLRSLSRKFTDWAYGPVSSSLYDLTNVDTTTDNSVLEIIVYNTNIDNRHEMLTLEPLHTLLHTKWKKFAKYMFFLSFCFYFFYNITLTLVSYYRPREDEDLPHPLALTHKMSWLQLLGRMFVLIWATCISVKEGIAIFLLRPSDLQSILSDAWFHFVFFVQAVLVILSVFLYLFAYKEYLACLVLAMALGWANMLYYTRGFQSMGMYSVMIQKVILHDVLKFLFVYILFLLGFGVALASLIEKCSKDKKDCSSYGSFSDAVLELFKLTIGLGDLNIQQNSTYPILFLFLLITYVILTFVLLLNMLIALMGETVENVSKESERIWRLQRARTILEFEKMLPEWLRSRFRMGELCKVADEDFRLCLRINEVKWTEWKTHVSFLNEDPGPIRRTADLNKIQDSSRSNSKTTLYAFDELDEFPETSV
Chain of UniProt P35372 (whole entry, looked up): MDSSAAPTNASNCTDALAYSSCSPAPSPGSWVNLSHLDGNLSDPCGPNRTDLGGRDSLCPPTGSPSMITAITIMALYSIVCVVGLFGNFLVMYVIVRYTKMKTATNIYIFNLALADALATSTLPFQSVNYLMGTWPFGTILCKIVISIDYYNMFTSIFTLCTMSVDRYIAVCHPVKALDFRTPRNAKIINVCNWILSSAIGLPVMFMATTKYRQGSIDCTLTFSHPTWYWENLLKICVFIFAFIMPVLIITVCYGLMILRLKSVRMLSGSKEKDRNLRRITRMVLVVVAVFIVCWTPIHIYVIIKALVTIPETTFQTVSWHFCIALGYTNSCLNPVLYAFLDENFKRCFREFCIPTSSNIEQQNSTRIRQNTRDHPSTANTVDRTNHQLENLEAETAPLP
Chain of UniProt Q6B856 (whole entry, looked up): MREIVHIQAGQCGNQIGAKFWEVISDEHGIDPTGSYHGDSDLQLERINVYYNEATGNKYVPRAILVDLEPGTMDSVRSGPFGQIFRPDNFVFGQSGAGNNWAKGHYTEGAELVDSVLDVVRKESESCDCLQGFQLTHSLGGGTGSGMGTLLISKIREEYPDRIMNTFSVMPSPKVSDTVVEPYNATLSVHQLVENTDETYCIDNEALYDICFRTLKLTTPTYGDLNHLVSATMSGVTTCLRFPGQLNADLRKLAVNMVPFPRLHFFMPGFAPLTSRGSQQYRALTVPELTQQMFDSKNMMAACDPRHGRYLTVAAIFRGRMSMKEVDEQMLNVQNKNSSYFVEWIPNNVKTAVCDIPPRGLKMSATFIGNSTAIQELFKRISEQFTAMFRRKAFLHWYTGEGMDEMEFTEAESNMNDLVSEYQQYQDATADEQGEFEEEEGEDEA

O=C1NCC(c2ccccc2)C(O)c2ccccc21 (racemic)  inhibition (PARP16; enzyme activity, inhibitor; 10 µM): 0%
C[C@@]12CC[C@@H]3c4cc(Cl)c(O)c(Br)c4CC[C@H]3[C@@H]1CCC2=O  inhibition (AKR1C3; enzyme activity, inhibitor, absorbance; 10 µM, pH 9): 25%
COc1ccc(-c2cc(=O)c3ccc(O)cc3o2)cc1  inhibition (MAL12; enzyme activity, inhibitor, absorbance; 25 µM): 7.4%
Cc1ccc(O)c(C=NNC(=S)NC2CCCCC2)c1  inhibition (Aldo-keto reductase family 1 member B1 (AKR1B1, Homo sapiens, UniProt P15121); enzyme activity, inhibitor, absorbance; 100 µM): < 50%
COc1cc(-c2nc(N)sc2-c2ccc3ccccc3c2)cc(OC)c1OC  inhibition (Tubulin alpha-1B chain/TUBB2B, colchicine site (Bos taurus, UniProt P81947+Q6B856); [3H]colchicine binding; 1 5 5 µM): 94 ± 0.49%
O=C1CCCc2ccccc2N1  inhibition (PARP16; enzyme activity, inhibitor; 10 µM): 95%
C[C@@]12CC[C@@H]3c4cc(Br)c(O)c(Cl)c4CC[C@H]3[C@@H]1CCC2=O  inhibition (AKR1C3; enzyme activity, inhibitor, absorbance; 100 µM, pH 9): 89.4%
CGHHHRDYC (disulfide 1-9 (inferred)) (disulfide)  inhibition (maltase-glucoamylase (rat intestine); enzyme activity; 1.2 mM, 120 min, pH 6.8, 37 °C, with: 4-MUG 0.3 mM): 12%
C[N+](C)(C)C[C@@H](O)CC(=O)[O-]  inhibition (SLC22A5; transporter uptake, inhibitor; 1 µM): 6.98%
O=C(O)c1ccccc1Nc1cccc(C(F)(F)F)c1  inhibition (Transient receptor potential cation channel subfamily V member 3 (Trpv3, Mus musculus, UniProt Q8K424); ion current, two-electrode voltage clamp; Xenopus oocytes; 100 µM, -100 mV, with: 2-APB 100 µM): 67%
C[C@@]12CC[C@@H]3c4cc(I)c(O)c(Br)c4CC[C@H]3[C@@H]1CCC2=O  inhibition (AKR1C3; enzyme activity, inhibitor, absorbance; 100 µM, pH 9): 43.6%
COc1ccc2c(c1)-c1c(sc3ccc(OC)cc13)C2=O  inhibition (Dual specificity tyrosine-phosphorylation-regulated kinase 1A (DYRK1A, Homo sapiens, UniProt Q13627); enzyme activity, inhibitor, radiometric; 1 µM): 25 to 32%
CC[C@]1(O)C[C@H]2CN(CCc3c([nH]c4ccccc34)[C@@](C(=O)OC)(c3cc4c(cc3OC)N(C=O)[C@H]3[C@@](O)(C(=O)OC)[C@H](OC(C)=O)[C@]5(CC)C=CCN6CC[C@]43[C@@H]65)C2)C1  inhibition (SLC22A5; transporter uptake, inhibitor; 20 µM): 48.4%
COc1cc(-c2cc(=O)c3ccc(O)c(OC)c3o2)cc(O)c1OC  inhibition (MAL12; enzyme activity, inhibitor; 250 µM): > 99%
CCc1c(C(=O)NCCc2ccc(N(CC)CC)cc2)[nH]c2ccc(Cl)cc12  inhibition (Cannabinoid receptor 2 (CNR2, Homo sapiens, UniProt P34972); calcium signal, antagonist; 10 µM): -44% and -44.4%
COc1c(O)ccc2c(=O)cc(-c3ccccc3)oc12  inhibition (MAL12; enzyme activity, inhibitor, absorbance; 100 µM): 89.3%
CC(C)/C=C/c1c(O)cc(/C=C/c2ccc(O)cc2)cc1O  inhibition (Mu-type opioid receptor (OPRM1, Homo sapiens, UniProt P35372); radioligand binding; 10 µM, 60 min, with: [3H]DAMGO): -58.3%
COc1ccc2c(=O)c(OC)c(-c3ccccc3)oc2c1  inhibition (MAL12; enzyme activity, inhibitor; 250 µM): > 99%
C[C@@]12CC[C@@H]3c4cc(Cl)c(O)c(I)c4CC[C@H]3[C@@H]1CCC2=O  inhibition (AKR1C3; enzyme activity, inhibitor, absorbance; 100 µM, pH 9): 58%
COc1ccc(-c2cc(=O)c3c(O)cc(OC)cc3o2)cc1  inhibition (MAL12; enzyme activity, inhibitor; 25 µM, with: p-nitrophenyl-α-D-glucopyranoside): < 1%
C[C@@]12CC[C@@H]3c4cc(I)c(O)c(Cl)c4CC[C@H]3[C@@H]1CCC2=O  inhibition (AKR1C3; enzyme activity, inhibitor, absorbance; 100 µM, pH 9): 72.2%
COc1cc2oc(-c3ccc(O)cc3)cc(=O)c2c(O)c1OC  inhibition (MAL12; enzyme activity, inhibitor; 250 µM): > 99%
C[C@@]12CC[C@@H]3c4cc(Br)c(O)c(I)c4CC[C@H]3[C@@H]1CCC2=O  inhibition (AKR1C3; enzyme activity, inhibitor, absorbance; 10 µM, pH 9): 50%
COc1c(-c2ccc(O)cc2)oc2c(OC)c(O)cc(O)c2c1=O  inhibition (MAL12; enzyme activity, inhibitor, absorbance; 1 µM): 24.7%
CCCCCCCCCCCCCCCc1cccc(O)c1C(=O)O  inhibition (Histone acetyltransferase KAT2B (KAT2B, Homo sapiens, UniProt Q92831); enzyme activity, inhibitor, radiometric; 200 µM): ≤ 35%

For quick reference, copied from above:
Cc1ccc(O)c(C=NNC(=S)NC2CCCCC2)c1  inhibition (Aldo-keto reductase family 1 member B1 (AKR1B1, Homo sapiens, UniProt P15121); enzyme activity, inhibitor, absorbance; 100 µM): < 50%
COc1cc(-c2nc(N)sc2-c2ccc3ccccc3c2)cc(OC)c1OC  inhibition (Tubulin alpha-1B chain/TUBB2B, colchicine site (Bos taurus, UniProt P81947+Q6B856); [3H]colchicine binding; 1 5 5 µM): 94 ± 0.49%
O=C1CCCc2ccccc2N1  inhibition (PARP16; enzyme activity, inhibitor; 10 µM): 95%
C[C@@]12CC[C@@H]3c4cc(Br)c(O)c(Cl)c4CC[C@H]3[C@@H]1CCC2=O  inhibition (AKR1C3; enzyme activity, inhibitor, absorbance; 100 µM, pH 9): 89.4%
